Literature values, collected from citations in different studies.
Each numbered part shows a few of the values that one paper quotes. In brackets after ≈: the same amount, converted by molar mass.
UniProt P25084, sequence (whole entry, looked up): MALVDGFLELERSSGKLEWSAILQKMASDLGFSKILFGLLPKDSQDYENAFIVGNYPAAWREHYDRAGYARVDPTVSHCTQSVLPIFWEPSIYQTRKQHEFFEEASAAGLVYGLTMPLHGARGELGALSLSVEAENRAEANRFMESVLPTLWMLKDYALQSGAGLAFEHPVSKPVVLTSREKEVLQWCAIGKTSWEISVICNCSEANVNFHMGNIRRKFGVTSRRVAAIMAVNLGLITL

Sample 1 — organism: Escherichia coli; quantity: MIC
CC[C@H](C)[C@H](NC(=O)[C@H](CCCCN)NC(=O)[C@H](CCC(=O)O)NC(=O)[C@@H](NC(=O)[C@H](CCCNC(=N)N)NC(=O)[C@@H](NC(=O)CNC(=O)[C@H](CC(C)C)NC(=O)[C@H](CCCCN)NC(=O)[C@H](CCCNC(=N)N)NC(=O)[C@H](CCC(=O)O)NC(=O)[C@H](CC(C)C)NC(=O)CNC(=O)[C@@H](N)CCCNC(=N)N)C(C)C)[C@@H](C)CC)C(=O)NCC(=O)N[C@@H](CCCNC(=N)N)C(=O)N[C@@H](CCCNC(=N)N)C(=O)N[C@@H](CC(C)C)C(=O)NCC(=O)N[C@@H](CCCNC(=N)N)C(=O)N[C@H](C(=O)N[C@@H](CC(C)C)C(=O)NCC(=O)N[C@@H](CCC(=O)O)C(=O)N[C@@H](Cc1c[nH]c2ccccc12)C(=O)N[C@@H](CCC(=O)O)C(=O)N[C@H](C(=O)N[C@@H](CCC(=O)O)C(=O)O)C(C)C)[C@@H](C)CC: 4 µM (≈ 13.3 µg/mL)
CC(C)[C@H](NC(=O)[C@H](Cc1ccc(O)cc1)NC(=O)[C@H](CS)NC(=O)[C@@H](NC(=O)[C@H](CCCNC(=N)N)NC(=O)[C@H](Cc1ccccc1)NC(=O)[C@H](CS)NC(=O)[C@H](Cc1c[nH]c2ccccc12)NC(=O)[C@@H](N)CCCNC(=N)N)C(C)C)C(=O)NCC(=O)N[C@@H](Cc1ccccc1)C(=O)N[C@@H](CS)C(=O)N[C@@H](Cc1ccc(O)cc1)C(=O)N[C@@H](Cc1c[nH]c2ccccc12)C(=O)N[C@@H](CCCCN)C(=O)N[C@@H](CS)C(=O)N[C@@H](CCCNC(=N)N)C(=O)O: 2 µM (≈ 4.55 µg/mL)
CC[C@H](C)[C@H](NC(=O)CNC(=O)[C@H](CCC(N)=O)NC(=O)[C@@H](NC(=O)[C@H](C)NC(=O)[C@H](CCC(N)=O)NC(=O)[C@H](C)NC(=O)[C@@H](NC(=O)[C@H](C)NC(=O)[C@H](CCCNC(=N)N)NC(=O)[C@H](Cc1ccccc1)NC(=O)[C@H](C)NC(=O)[C@H](CC(N)=O)NC(=O)[C@H](CCCCN)NC(=O)CNC(=O)[C@H](C)NC(=O)[C@H](CCCCN)NC(=O)[C@H](CCC(=O)O)NC(=O)[C@@H](NC(=O)[C@H](CCCCN)NC(=O)[C@H](CCCCN)NC(=O)CN)[C@@H](C)CC)C(C)C)C(C)C)C(=O)NCC(=O)N[C@@H](Cc1ccccc1)C(=O)N[C@@H](C)C(=O)N[C@@H](CCCNC(=N)N)C(=O)N[C@@H](C)C(=O)N[C@@H](CC(C)C)C(=O)NCC(=O)N[C@H](C(=O)N[C@@H](C)C(=O)N[C@H](C(=O)N[C@@H](CC(=O)O)C(=O)O)C(C)C)[C@@H](C)CC: 2 µM (≈ 6.71 µg/mL)

Other studies, line by line
CC(=O)OC12COC1CC(O)C1(C)C(=O)C(OC(=O)N(C)C)C3=C(C)C(OC(=O)C(O)C(C=C(C)C)NC(=O)OC(C)(C)C)CC(O)(C(OC(=O)c4cccc(OC(F)(F)F)c4)C21)C3(C)C (stereo not drawn)  IC50 (HCT-116; cytotoxicity): 1.79 nM
CC[C@H](C)[C@H](NC(=O)[C@H](CCCN)NC(=O)[C@H](CCCNC(=N)N)NC(=O)[C@@H]1CCCN1C(=O)[C@@H]1CCCN1C(=O)[C@H](CCCNC(=N)N)NC(=O)[C@@H]1CCCN1C(=O)[C@H](CCCNC(=N)N)NC(=O)[C@@H]1CCCN1C(=O)[C@H](CC(C)C)NC(=O)[C@H](Cc1ccc(O)cc1)NC(=O)[C@@H]1CCCN1C(=O)[C@@H]1CCCN1C(=O)[C@H](CCCCN)NC(=O)[C@H](CC(=O)O)NC(=O)[C@@H](N)C(C)C)C(=O)N[C@@H](Cc1ccc(O)cc1)C(=O)N[C@@H](CC(N)=O)C(=O)N[C@@H](CCCN)C(N)=O  elimination half-life (mouse; intraperitoneal, dose not given): ~14 min
O=C1C=C(Br)/C(=C/Br)O1  inhibition (Transcriptional activator protein LasR (lasR, Pseudomonas aeruginosa, UniProt P25084); reporter gene, antagonist, lasB-gfp(ASV) reporter; Escherichia coli; 100 µM): 90%

Repeated from above (sample 1):
CC[C@H](C)[C@H](NC(=O)CNC(=O)[C@H](CCC(N)=O)NC(=O)[C@@H](NC(=O)[C@H](C)NC(=O)[C@H](CCC(N)=O)NC(=O)[C@H](C)NC(=O)[C@@H](NC(=O)[C@H](C)NC(=O)[C@H](CCCNC(=N)N)NC(=O)[C@H](Cc1ccccc1)NC(=O)[C@H](C)NC(=O)[C@H](CC(N)=O)NC(=O)[C@H](CCCCN)NC(=O)CNC(=O)[C@H](C)NC(=O)[C@H](CCCCN)NC(=O)[C@H](CCC(=O)O)NC(=O)[C@@H](NC(=O)[C@H](CCCCN)NC(=O)[C@H](CCCCN)NC(=O)CN)[C@@H](C)CC)C(C)C)C(C)C)C(=O)NCC(=O)N[C@@H](Cc1ccccc1)C(=O)N[C@@H](C)C(=O)N[C@@H](CCCNC(=N)N)C(=O)N[C@@H](C)C(=O)N[C@@H](CC(C)C)C(=O)NCC(=O)N[C@H](C(=O)N[C@@H](C)C(=O)N[C@H](C(=O)N[C@@H](CC(=O)O)C(=O)O)C(C)C)[C@@H](C)CC: 2 µM (≈ 6.71 µg/mL)
